Experimental data from different studies.
A part holds a random share of what one study measured.

Block 1
Target: Prothrombin, mature alpha-thrombin (F2, Homo sapiens, UniProt P00734)
Method: aptamer microarray, sandwich
Molecule type: DNA with 2'F-ANA
Medium: in vitro
Concentration: 200 nM
Notes: whole 15-mer aptamer, many near background
Together with: Cy3 exosite-II aptamer, 400 nM
Direction: higher = stronger binding
Strand: GGTTGGTGTGGTTGG
| Modification | mean fluorescence intensity [a.u.] |
| --- | --- |
| 2'F-ANA at 3 4 6 7 8 9 12 14 15 | 303 |
| 2'F-ANA at 3 4 6 7 9 10 15 | 256 |
| 2'F-ANA at 1 2 3 7 8 13 14 | 91.3 |
| 2'F-ANA at 2 3 5 6 7 8 11 12 13 14 15 | 61.1 |
| 2'F-ANA at 2 3 5 9 10 12 14 15 | 51.9 |
| 2'F-ANA at 1 3 4 5 9 10 13 14 15 | 49.3 |
| 2'F-ANA at 1 6 10 11 12 13 15 | 70.2 |
| 2'F-ANA at 1 2 3 6 7 9 11 14 15 | 57.6 |

Block 2
Target: Histone acetyltransferase KAT6A, winged helix 1, GST fusion (KAT6A, Homo sapiens, UniProt Q92794, residues 1-85)
Method: protein binding microarray
Molecule type: double-stranded DNA, one strand shown
Medium: in vitro
Concentration: not given
Notes: 8-mer, flanks averaged, mean of 2 arrays, mostly near background
Baseline: not given
Direction: higher = stronger binding
Construct (chain): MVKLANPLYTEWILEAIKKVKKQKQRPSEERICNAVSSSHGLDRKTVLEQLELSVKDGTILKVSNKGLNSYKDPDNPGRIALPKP
| Strand | E-score |
| --- | --- |
| ACCACATG | -0.0895 |
| CCGGCTCC | 0.21 |
| AAATGAGT | -0.11 |
| CATGTTAC | 0.0214 |
| CGCGCATC | 0.425 |
| CCCGATAA | 0.0463 |
| CCTACAGG | -0.0618 |
| GCATACGC | 0.229 |
| GTGAAAAA | -0.191 |

Block 3
Target: Interferon regulatory factor 7, full length, phosphomimetic (IRF7, Homo sapiens, UniProt Q92985, residues 1-503, S101K/S471D/S472D/S475D/S476D/S477D/S483D/S484D/S487D)
Sequence of UniProt Q92985 (whole entry, unmodified, looked up): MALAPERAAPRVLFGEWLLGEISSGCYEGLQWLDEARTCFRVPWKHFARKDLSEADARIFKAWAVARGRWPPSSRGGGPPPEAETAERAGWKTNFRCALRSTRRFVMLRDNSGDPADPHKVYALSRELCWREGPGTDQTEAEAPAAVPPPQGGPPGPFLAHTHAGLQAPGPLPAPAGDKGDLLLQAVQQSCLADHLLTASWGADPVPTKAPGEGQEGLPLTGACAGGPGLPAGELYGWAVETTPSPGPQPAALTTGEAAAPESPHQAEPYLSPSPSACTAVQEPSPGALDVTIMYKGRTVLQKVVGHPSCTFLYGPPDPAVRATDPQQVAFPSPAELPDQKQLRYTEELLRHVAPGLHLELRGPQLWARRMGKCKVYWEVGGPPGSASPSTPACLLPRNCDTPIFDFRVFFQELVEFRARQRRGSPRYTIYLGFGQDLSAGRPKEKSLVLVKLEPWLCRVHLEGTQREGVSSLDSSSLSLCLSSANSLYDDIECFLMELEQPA
Method: protein-binding microarray
Molecule type: double-stranded DNA, one strand shown
Medium: in vitro
Concentration: 250 nM
Notes: 60-bp whole probe
Together with: salmon DNA 0.4 mg/ml
Baseline: random background probes
Direction: higher = stronger binding
All sequences stand within: GCCTAGCAC … GTCTTGATTCGCTTGACGCTGCTG
| Strand | log fluorescence [z-score] |
| --- | --- |
| GAGGGTGTTCTTTTCTGTTGGTGCTAG | -0.512 |
| GACGTTCTCGGTTTCGGGACGTGCTAG | 5.77 |
| ATGGCTCTCTGGACTGTGTGTGTGCTA | -0.933 |
| CTGATTTCCACTTTCTTAATGTGCTAG | 2.79 |
| TTAGGTATCGACACCGGGTTAGTGCTA | 0.206 |
| TCATCTCAGAATCTCTCACTGTGCTAG | 0.575 |
| TCATCTTGCAGATGTCGCACTGTGCTA | 0.112 |
| TTAGGACTGGGTTACGGTTAGTGCTAG | 0.96 |
| CTAGGTATCGACACTGGGTTAGTGCTA | 0.324 |

Other studies, line by line
| Substance | target | assay | test system | setting | scale | endpoint | result |
| --- | --- | --- | --- | --- | --- | --- | --- |
| PhoQ, residues 284 288 289 292 302 303 SLSVQF | PhoP, residues 12 14 15 18 19 STHWV (Escherichia coli, UniProt P23836) | Sort-seq, measured: YFP reporter | E. coli | PhoQ-PhoP variant library, together with: 10 µM Mg2+ | baseline: high Mg2+ state, higher = stronger signaling | fold induction | 18.8 |
